Assay results of several laboratories.
Cell line: HCT-15

O=C1NC(c2ccccc2)(c2ccccc2)C(=O)N1Cc1cn(-c2c3ccccc3nc3ccccc23)nn1  growth percentage (NCI60 single-dose screen; 10 µM): 59.9%
Cc1cc(C)n(C(=S)[S][Au][PH](CCCCCC[PH]([Au][S]C(=S)n2nc(C)cc2C)(c2ccccc2)c2ccccc2)(c2ccccc2)c2ccccc2)n1  log10 TGI (cell growth, NCI-60 screen; colon cancer): > -4
C#C[C@@]1(O)[C@@H](CO)O[C@@H](n2cc(Cl)c3c(N)ncnc32)[C@@H]1O  TGI (SRB; NCI-60 screen): > 100 µM
Cc1cc(C)n(-c2nc(-c3ccc(Cl)cc3)c3c(NC(=O)c4ccccc4)nnc-3[nH]2)n1  cell growth (SRB; 10 µM, NCI60 single-dose screen, colon cancer; reference: untreated): 96%
CCCC(CCC)C(=O)OCc1cn(-c2c3ccccc3nc3ccccc23)nn1  growth percentage (NCI60 single-dose screen; 10 µM): 91.8%
CCCCN1CCN(c2ccc3[nH]c(-c4ccc5[nH]c(-c6cc(OC)c(OC)c(OC)c6)nc5c4)nc3c2)CC1  growth percent (SRB; 10 µM, 48 h): 99.2%
O=C1NCCc2[nH]c(-c3ccncc3)cc21  IC50 (MTS; colon cancer): 2.54 µM
O=C(Nc1nnc2n3c(=S)[nH][nH]c3nc(-c3ccc(Cl)cc3)c1-2)c1ccccc1  cell growth (SRB; 10 µM, NCI60 single-dose screen, colon cancer; reference: untreated): 95.7%
CCCCN1CCN(c2ccc3[nH]c(-c4ccc5[nH]c(-c6ccc(C(F)(F)F)cc6)nc5c4)nc3c2)CC1  growth percent (SRB; 10 µM, 48 h): -79%
Cn1cncc1C1=CN(c2ncnc3[nH]cnc23)CCS1  GI50 (colon cancer): 10 µM
CCn1cc(-c2cc(Cn3ccnc3)cc3c2CCN([C@H](c2cc(OC)ccn2)C2CC2)C3=O)c(C(F)(F)F)n1  EC50 (cell growth, inhibitor; 120 h): 7.69 µM
CN1CCN(c2ccc3[nH]c(-c4ccc5[nH]c(-c6ccc(C(F)(F)F)cc6)nc5c4)nc3c2)CC1  growth percent (SRB; 10 µM, 48 h): 80.4%
Cc1cc(-c2ccccc2)n(-c2nc(-c3ccc(Cl)cc3)c3c(NC(=O)c4ccccc4)nnc-3[nH]2)n1  cell growth (SRB; 10 µM, NCI60 single-dose screen, colon cancer; reference: untreated): 89.8%
COc1ccc(OC)c(-c2nc3ccc(-c4nc5ccc(N6CCN(C)CC6)cc5[nH]4)cc3[nH]2)c1  growth percent (SRB; 10 µM, 48 h): 76%
CCN(CC)c1ccc(C=NNC(=O)CSc2nc3ccccc3c(=O)n2Cc2ccc(S(N)(=O)=O)cc2)c(O)c1  TGI (NCI five-dose screen): > 100 µM
O=c1ccn(Cc2cn(-c3c4ccccc4nc4ccccc34)nn2)c(=O)[nH]1  growth percentage (NCI60 single-dose screen; 10 µM): 91.5%
O=C(Nc1nnc2[nH]c(=S)[nH]c(-c3ccc(Cl)cc3)c1-2)c1ccccc1  cell growth (SRB; 10 µM, NCI60 single-dose screen, colon cancer; reference: untreated): 97.8%
CCOc1ccc(-c2nc3cc(-c4nc5cc(N6CCN(C)CC6)ccc5[nH]4)ccc3[nH]2)cc1OCC  growth percent (SRB; 10 µM, 48 h): 63.7%
NNc1nc(-c2ccc(Cl)cc2)c2c(NC(=O)c3ccccc3)nnc-2[nH]1  cell growth (SRB; 10 µM, NCI60 single-dose screen, colon cancer; reference: untreated): 102%
C#C[C@@]1(O)[C@@H](CO)O[C@@H](n2cc(F)c3c(N)ncnc32)[C@@H]1O  TGI (SRB; NCI-60 screen): 3.19 µM
Cc1n[nH]c2nc(-c3ccc(Cl)cc3)c3c(NC(=O)c4ccccc4)nnc-3n12  cell growth (SRB; 10 µM, NCI60 single-dose screen, colon cancer; reference: untreated): 90.8%
CCCCN1CCN(c2ccc3[nH]c(-c4ccc5[nH]c(-c6ccc(OCC)c(OCC)c6)nc5c4)nc3c2)CC1  growth percent (SRB; 10 µM, 48 h): -30.4%
